# Measured values of several laboratories.
# Each numbered part is a random draw from the data of one study; scales do not carry over between parts. “And” joins repeats or separate records; there may be more than shown.

# Study 1 — species: human; matrix: microsomes or S9; concentration: 2 µM; time: 0.5 h
SMILES,remaining compound [%]
Cc1nc(O)[nH]c(=O)c1S(=O)(=O)Nc1ccccc1C(=O)NCCc1ccccc1,81.7
COCC(C)N(Cc1cc(OC)cc(OC)c1)C(=O)CCCC(C)=O (stereo not drawn),21.4
Cc1cc(C)cc(N(C)S(=O)(=O)c2cn(C)c(=O)[nH]c2=O)c1,90.9
Cc1ccc2c(c1)ncc1c(-c3ccccc3)nn(-c3cccc(C)c3C)c12,103

# Study 2 — cell line: mouse MPNST tumor cells; method: high-content nuclear imaging; refers to: cell number; concentration: 10 µM; time: 12 h; setting: mean of 2 replicates; reference: plate mean; reading: higher = more cells
SMILES,nuclei count
CCc1cc(C(C)=O)c(O)cc1OCCCCCC(C)(C)c1nn[nH]n1,0.0741 z-score
COc1cc2c(cc1OCCCN1CCCC1)N=C(N)C21CCC1,0.89 z-score and 5.38 z-score
CN(C)CCCN1c2ccccc2Sc2ccc(Cl)cc21,-7 z-score
Clc1cc2c(NC3CCCC3)nnc(-c3ccncc3)c2cc1Cl,1.65 z-score

# Study 3 — organism: Sarcocystis neurona; observed: parasite activity; concentration: 10 µM; time: 96 h
SMILES,activity class
CCN(CC)CCOC(=O)c1ccc(N)cc1,inactive
CCN(CC)CC#CCOC(=O)C(O)(c1ccccc1)C1CCCCC1 (stereo not drawn),inactive
COc1cc(CNC(=O)CCCC/C=C\C(C)C)ccc1O,inactive

# Other studies, line by line
Structure (SMILES),cell line,conditions,how to read,measurement,result
CN(C)C(=O)/C(C#N)=C/c1ccc(-c2nc3cnc4c(ccn4C)c3n2C2CCCCC2)o1,sample C colorectal tumour organoid,0.1 µM,reference: DMSO,viability,108%

# A few entries again (study 2):
SMILES,nuclei count
CN(C)CCCN1c2ccccc2Sc2ccc(Cl)cc21,-7 z-score
Clc1cc2c(NC3CCCC3)nnc(-c3ccncc3)c2cc1Cl,1.65 z-score
